# Measurements pooled from the literature.
# Parts stem from different laboratories: compare values within a part only. Changes are numbered by the printed parent chain.

# Set 1 — technique: RNA Bind-n-Seq; molecule type: RNA; matrix: in vitro; tested at: 365 nM; relative to: no-protein control; direction: higher = stronger binding
# Target: RNA binding protein fox-1 homolog 2, RRM domain, GST-SBP tag (RBFOX2, Homo sapiens, UniProt O43251-10, residues 100-194)
# Notes: natural RNA segment, single round, ends assumed
# All sequences stand within: GGGAGUUCUACAGUCCGACGAUC … UGGAAUUCUCGGGUGCCAA
# Target sequence (chain): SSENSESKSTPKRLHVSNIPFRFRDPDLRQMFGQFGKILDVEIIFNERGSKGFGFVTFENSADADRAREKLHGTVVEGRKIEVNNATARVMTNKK
Sequence,RBNS enrichment (R)
AGGCCCCCAUAUACUCUGCUACAGCUCCUAUCAUGAAAAAUAAAAUGUUUGUCUUUGCAAAACAGUAGUUCUGAGGCAGUCAGGGCUGUGCCCUUGGAAAUGGAGACCUG,0.628
CCUGCAGCCAGGGGAUGGGGAGCCUCUGCUCCCCCCAUGCUCCCACCCUGGCUGAGGGCCAGCCUCAUCUGCAGAGCCCUGGAGGAGGCCCACCUAUGGACACAGCCCGA,0.597
UUUUUACUUACUACUGAAGGAUCUCAGAUGUAAAAUUAUGUAUUUGGUUUGAGAUGGCCACUUAUUGUCCUUAAAAAUCCAUACUGAUAUAUGCAGUCAUUUUGAAUUGG,0.382
GCUUGACUGGUUUGAGUUCCCGAGGCCAAGGGGAAGCUUUAGCUUUGCUCUGCUUUUGAACCAGUGUUGGGGGAUUCCCUGUCGUGCUGGGUUGGGACUGUGGAGGCGGC,0.181
GCCACACUGUGCGUCCUGGAGACAGAGCAGAGAUUGAGUAGGGAAACUGGCGUGAAAGGUGAGCAGGCGUCUGCGGAGCGGAUUCCUGUGGUGGACCGUGGAGUGCAGAG,0.623
CAGCAUCCCUGGGGAAACCUGACUUGCAAUUUCUAGAGUUUAAGAUCUUCCCAUCGGCUGUGGCAAGCUCUUCCCCUGUGUGGAAUUUUGUUAUCUUUAUUUAGCUGAGG,0.452
UGGUGAGGAGAAGUCGCCAUUGAGCACACAACCUCCACCAGACUGCCAUGGCCCCGAACCUGCAAUUCCAUCCUAGCGCAGAAGCAUGUGCCUGCCACCUGCUGCCCCUG,8.86
AGUAGUGACAAGUCGUGUGUCGGAAUUGGAUUUGAGAACACUCUGAAUGACCCCUGGAGGCCGAGGGGGCAGGCUUCGGGCGUGAACUGAACUCCAGACCCCUCUUUGUG,1.23
UUUAAAGUUCCAGAAUAAUCUCCUUUGACUCCAGGUCUCACAUCCAGGUCAUACUGAUGCAAGAAGUGGGUUCCCAUGGUCUUGGGCAGCUCUGCCCCUGUGGCUUUGUA,0.257
ACCCAGGAUGGAACACGAAACCACACGUGCCGUGACCUUUAGGUUUAUGAGUAGACAGUGUUAAUUUGAUUUUCUACAGGAAUUAUGUAACUUAUUCUUUAGGUUUAAAA,0.37
UCUAAUUUUAUAUAUAGAGAAAGUGACCUAUUUUUUAAAAAAAUCACACUCUAAGUUCUAUUGAACCUAGGACUUGAGCCUCCAUUUCUGGCUUCUAGUCUGGUGUUCUG,0.333
AAUCCACAGUGCAGAAAAGCCUCAAAGCACAGGAGUUUAGGAGAAGCUUUGGUUGUAGUGUGAGCAUCAUUUGGCAUUAGAGAAACCAUGUACUAGUGGAAAAGUCUAGU,0.736

# Set 2 — target: DBP, bZIP domain (human); technique: DHFR protein complementation; matrix: yeast; relative to: wild-type JUN-FOS pair; direction: higher = stronger binding
# Notes: single substitutions, most at no-binding floor
# Starting sequence: JUN, bZIP domain (human); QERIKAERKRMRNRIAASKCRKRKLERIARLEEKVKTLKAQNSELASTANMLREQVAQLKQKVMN; partner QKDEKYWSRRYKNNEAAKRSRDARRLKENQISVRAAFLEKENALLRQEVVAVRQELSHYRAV
Variant,binding fitness [natural log]
S43A,-1.37
T48A,-1.27
E44L,-1.44
S47C,-1.39
V56Q,-1.54
M51W,-1.46
E32T,-1.53
E32K,-1.55
A49L,-1.46
E33P,-1.51
L52A,-1.33
E44Y,-1.36
E44T,-1.32
E54G,-1.43
I28S,-1.39
T37K,-1.37

# Set 3 — target: human cyclin A2; technique: competitive growth deep sequencing; molecule type: peptide; organism: Saccharomyces cerevisiae; strain: cyclin A2-Cln2 fusion strain; notes: peptide tiling library; direction: direction not given
Molecule,enrichment score
KSKHEEEEWTDDDLVE,1.19
LAKRALKYTD,0.507
LKGRRLVFDN,1.07
ISRLFPPRTPGWHQLQ,-1.08
SPREGHMMDALYAQVK,0.405
AGSAKRRLFGEDPPKE,2.82
KRRLDLETDHQY,2.79
QDYERRLLRQIVIQNE,0.0577
TSPGPVLLHPSPSTTQ,0.425
RSLKLDGLLEEN,0.832
PLRKAKRARLCSSSSS,1.82
GQLVIPLDELTLDTSF,1.79
ESSTVSEEDYFSSHRD,0.959
RVSGLLSWTLSRVLWL,-0.381
IQKKLRFEDTLEFVGF,0.0342
KPITLDTTDFQESFVT,0.496
VLLKRLQDVVSERANH,-1.26
TRRRLFVENDSP,3.23
RDLFDCDFGDLTPLDF,1.43
KDDDKAWEYEERDRRS,0.753
ALLRRLQDVANDRGSH,-0.721
CFRCLLFSFSGRSGVE,-0.0618
SDSTVTKLDFDLEP,0.45
MNQELLSVGSKRRRTG,1.34

# Set 4 — technique: protein-binding microarray; molecule type: double-stranded DNA, one strand shown; matrix: in vitro; tested at: not given; direction: higher = stronger binding
# Target: Max dimerization protein 1, bHLH-zipper, MAX partner unstated (MXD1, Homo sapiens, UniProt Q05195, residues 56-136)
# Notes: k-mer, scored over probes, only values ≥0.25
# Target sequence (chain): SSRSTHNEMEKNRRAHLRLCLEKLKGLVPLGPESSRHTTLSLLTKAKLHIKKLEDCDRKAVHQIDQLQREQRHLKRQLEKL
Sequence,E-score
ATGCACAT,0.299
ATCATGCG,0.302
CCCACCAC,0.292
GCCACGCC,0.339
ACCATGAG,0.365
ATCCCACG,0.34
ACGTGGTC,0.385
CCACGCGC,0.422
ACGTGGCA,0.362
CCCACACG,0.311
CGACACGC,0.355
AACGCGTG,0.382
CTCAGCAC,0.262
ACCCCACG,0.271
CAATGTGC,0.329
ACGTGCGA,0.321

# Set 5 — technique: RNA Bind-n-Seq; molecule type: RNA; matrix: in vitro; tested at: 1 µM; notes: whole 134-nt RNA, ends assumed; added: 150 mM KCl; relative to: input library; direction: higher = stronger binding
# Target: Ras GTPase-activating protein-binding protein 1, RRM domain (G3BP1, Homo sapiens, UniProt Q13283)
# UniProt Q13283, sequence (whole entry, looked up): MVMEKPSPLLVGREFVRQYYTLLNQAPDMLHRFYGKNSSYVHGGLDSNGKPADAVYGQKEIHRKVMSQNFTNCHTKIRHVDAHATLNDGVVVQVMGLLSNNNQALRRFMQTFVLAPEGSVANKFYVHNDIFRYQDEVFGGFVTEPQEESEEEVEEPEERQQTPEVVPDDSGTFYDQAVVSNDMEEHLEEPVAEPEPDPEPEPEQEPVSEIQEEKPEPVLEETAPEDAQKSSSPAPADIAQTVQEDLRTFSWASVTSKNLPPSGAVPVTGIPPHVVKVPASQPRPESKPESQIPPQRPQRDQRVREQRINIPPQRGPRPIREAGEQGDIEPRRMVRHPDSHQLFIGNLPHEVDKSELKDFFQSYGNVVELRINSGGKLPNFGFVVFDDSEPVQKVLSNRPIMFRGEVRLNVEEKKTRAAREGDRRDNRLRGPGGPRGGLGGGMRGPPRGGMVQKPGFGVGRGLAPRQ
# All sequences stand within: GGGAGUUCUACAGUCCGACGAUC … UGGAAUUCUCGGGUGUCAAGG
Sequence,log2 enrichment
ACCAUGCAGAAAGGCAUCUUUGGGAAGUGGGGCAAGGGGGGGAUAGGGAGGGGGGUAACACUUUGGGAACAGGUGGUCCCAGGUCGUUUC,-0.276
UAACUUUAGAGGAGGAUCUGAUGGAUAUGGCAGUGGACGUGGAUUUGGGGAUGGCUAUAAUGGGUAUGUAGGAGGACCUGGAGGUGGCAA,-0.403
GUCCUGUGCUACACAUCGUAUGUACCGAAUCGGCCCCCCGGCCCCCCGGCCCCCCGGGGAAAGUAUUAUGUUACGCCGUUCGGAUCUGCA,-0.61
UGGGAGGUGGAUUUUGUUUAUUUUUUUAGCUCAUUUCCAGGGGUGGGAAUUUUUUUUUAAUAUGUGUCAUGAAUAAAGUUGUUUUCGAAA,1.51
CACAGACAACACGCACCCACACAGACACAGAGGGAAGGGGUUGUGAUGGGGACAGGGUGCACAGCAGGGCGGGGUAGGACCCCAGCCCCU,-0.153
UGGCCCUGGUGGCAUGCGGGGAGGAAGAGGUGGCCUCAUGGAUCGUGGUGGUCCCGGUGGAAUGUUCAGAGGUGGCCGUGGUGGAGACAU,1.9
UCUAGAUACAGAUGCACGAUUUGGCCAUGGAUCCGACUACUCUCGCCAACAGAACAGAUUUAAUGACUUUGAUCACCGAGAGAGGGGCAG,-0.0382
AAGUCCUGUGCUACACAUCGUAUGUACCGAAUCAAACCCCCAAAUUUAAAUUUAAAAAAGUAUUAUGUUACGCCGUUCGGAUCUGCACUU,-0.0549
GUGGACAACGCGUACUGGCUGUGGACUUUCCAGGGACGCCUCCUGCAGAAGAACAACAAGGACCGCUUCUGCCAGCUGCUGUGGCGGCCC,-0.468
GCAGGAAGUAAAAACAAAUGGAAAUGCUUCGGAUAGUGGCAGGGGUGGGGGUCGCUAAGGAAAGGGUGGGAUGGGAGUGGGUAAAGAGUU,0.716
UGGGAGGUGGAUUUUGUUUAUUUUUUUAGCUCAUUUCCAGGGGUGGGAAUUUUUUUUUAAUAUGUGUCAUGAAUAAAGUUGUAUUUGAAA,2.25
GUCCUGUGCUACACAUCGUAUGUACCGAAUCAAAUUUUUAAAUUUUUUUAAAUUUAAAAAAGUAUUAUGUUACGCCGUUCGGAUCUGCAC,-0.882
UCCUCAAGUCCUGUGCUACACAUCGUAUGUACCGAAUCGGAGGAGGUUUGGAAAGUAUUAUGUUACGCCGUUCGGAUCUGCACUUCCAGC,-0.292
UGCUGGAGAUGCAAUAUAUGAGGUGGUGAGUCUACAGCGAGAGUCUGACAAGGAGGAACCAGUCACUCCUACUAGUGGAGGGGGUCCAAU,-0.288

# For quick reference, copied from above (set 4):
Sequence,E-score
ACGTGGTC,0.385
CCACGCGC,0.422
ACGTGGCA,0.362
CCCACACG,0.311
CGACACGC,0.355
AACGCGTG,0.382
